Published values of several laboratories.
A part holds a random share of what one study measured.

Block 1
Target: RNA binding protein fox-1 homolog 2, RRM domain, GST-SBP tag (RBFOX2, Homo sapiens, UniProt O43251-10, residues 100-194)
Method: RNA Bind-n-Seq
Form: RNA
Matrix: in vitro
Tested at: 365 nM
Notes: natural RNA segment, single round, ends assumed
Relative to: no-protein control
Direction: higher = stronger binding
Measurement: RBNS enrichment (R)
Construct (chain): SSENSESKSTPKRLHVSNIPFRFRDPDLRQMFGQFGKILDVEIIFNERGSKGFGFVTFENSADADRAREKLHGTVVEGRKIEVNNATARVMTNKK
Strand = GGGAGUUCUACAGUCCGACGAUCAUAUUUCUGUCCCAUCAGGAAAACUGAAGGAUAUGGGGAAUCAUUGGUUAUCUUCCAUUGUGUUUUUCUUUAUGGACAGGAGCUAAUGGAAGUGACAGUCAUGUUCAAAGUGGAAUUCUCGGGUGCCAA; result = 0.372
Strand = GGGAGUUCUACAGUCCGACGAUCGUGGCGCCUCCCGCAGCUUCCCUUCUCUCUCCAGUGCUGCCCGCUGUGUCUAGCAGCCUCUAGGAUCUUGUCAGAGCUGCACCUCUCUGUGAACUGGCCAUUCCUUUCGGUGGAAUUCUCGGGUGCCAA; result = 0.375
Strand = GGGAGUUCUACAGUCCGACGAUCCACAGCACAGUUUCCUCCCUGAGCCCCAGCCGUGGGGAACAUCUGGAGUCAACAGAGUCACUGGGAACUGAGGCAGGAGUAUCAUCUGUGGGAGCUGGCUGCCCCACCCAUGGAAUUCUCGGGUGCCAA; result = 0.359
Strand = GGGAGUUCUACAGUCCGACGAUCCUCAGGAAGACCCACCUCUAUACCAUCUAGGAAGUGGGCACUGACUUUAAAGCGCUCCAGCCAACAGCUGUAGGUGAGACCUGGGAGGGGAGGAACUGCACCAGCGCACAUGGAAUUCUCGGGUGCCAA; result = 0.64
Strand = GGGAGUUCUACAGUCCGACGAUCAUGUUUUGGGUUCUGUUGCGCUAUUAAUUAAUGUAAAUUUGUUUAUACCCAGGAGAAUAUGUAUACCAUGUGUGUUUGACUAAGUUCACAAGGGAAGUUUUUGGCUCUGCUGGAAUUCUCGGGUGCCAA; result = 0.345
Strand = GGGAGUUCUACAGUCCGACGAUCAAAAUUCCUAGAUCCUAGGAAUUCAGUGAGACCCUGGGAAGGACCAGCAUGCUAAUCAGUGUCAGUGAAUCCACAGUCUUUACUUCCUGCCUCAUAAAGGGCCAGGUCUCUGGAAUUCUCGGGUGCCAA; result = 7.14
Strand = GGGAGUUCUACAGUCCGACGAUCGCUUGUGCAGACACUCAGGGAUGGAGCUGCUGCUGAAGGGACUUGUAGGGAGAGGCUCGUCAACAAGCACUGUUCUGGAACCUUCUCUCCACGUGGCCCACAGGCCUGACUGGAAUUCUCGGGUGCCAA; result = 0.522
Strand = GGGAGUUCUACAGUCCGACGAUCACCCAGUCUUGUCCCCUGAAUUUUAUCUGUGUGCUGGGUGGCCUGGCUGAUGCAGAGGCCUGCUAAGAGAACGUACUCUUACCUGCUGCCAGUGAGACAUCGUAUCUGUGUGGAAUUCUCGGGUGCCAA; result = 1.4

Block 2
Target: Interferon regulatory factor 5, full length, phosphomimetic (IRF5, Homo sapiens, UniProt Q13568-2, residues 1-514, S451D/S453D/S456D/S462D)
Method: protein-binding microarray
Form: double-stranded DNA, one strand shown
Matrix: in vitro
Tested at: 940 nM top
Notes: 60-bp whole probe
Added: salmon DNA 0.4 mg/ml
Relative to: random background probes
Direction: higher = stronger binding
Measurement: fitted relative affinity
Shared flanks, not repeated: GCCTAGCAC … GTCTTGATTCGCTTGACGCTGCTG
Strand = GACGGAATGCTTTTCCTGACGTGCTAG; result = -0.537 z-score
Strand = GACGGTTTCCGGTTTCGGGACGTGCTA; result = 4.13 z-score
Strand = GACGGACTGCTTCTCCTCACGTGCTAG; result = -0.266 z-score
Strand = GACGAGATCAGTATCGAGACGTGCTAG; result = 3.39 z-score
Strand = GACGGTATCGGTTTCGGGAGGTGCTAG; result = 9.23 z-score
Strand = GAAGGACTGGACTATCGGGACGTGCTA; result = -0.777 z-score
Strand = GACGGTCTCCTTATCCTGAAGTGCTAG; result = 0.283 z-score
Strand = TTAGATAGCGGGTATCGATTAGTGCTA; result = 2.66 z-score
Strand = GACGGCATCGGGTATCGGGACGTGCTA; result = 0.403 z-score
Strand = TCAGCTTTGTGCCTAGCACTGTGCTAG; result = -0.249 z-score
Strand = GACGGTCTCTGTCTCGGGACGTGCTAG; result = 1.25 z-score
Strand = GACGGTCTCCCTCTCCTGACGTGCTAG; result = 0.527 z-score
Strand = GACGGTATCTGGTTTCGGGACGTGCTA; result = 4.86 z-score
Strand = TTTTTTTTTTTTTCTGATCCGTGCTAG; result = 1.08 z-score
Strand = GACGGTCTCGGTTACGGGACGTGCTAG; result = 4.63 z-score
Strand = TTAGACATCGGGTATCGATTAGTGCTA; result = 2.88 z-score
Strand = GACGATTTCAGGTATCGAGACGTGCTA; result = 1.2 z-score
Strand = TCAATTTTCAATTCCTGACTGTGCTAG; result = 0.197 z-score
Strand = TTTTGCTTTCATTTATTTACGTGCTAG; result = 3.53 z-score

Block 3
Target: Histone acetyltransferase KAT6A, winged helix 1, GST fusion (KAT6A, Homo sapiens, UniProt Q92794, residues 1-85)
Method: protein binding microarray
Form: double-stranded DNA, one strand shown
Matrix: in vitro
Tested at: not given
Notes: 8-mer, flanks averaged, mean of 2 arrays, mostly near background
Relative to: not given
Direction: higher = stronger binding
Measurement: E-score
Target sequence (chain): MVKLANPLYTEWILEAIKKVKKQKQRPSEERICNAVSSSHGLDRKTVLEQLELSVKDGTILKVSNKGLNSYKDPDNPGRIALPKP
Strand = CTCGCTAC; result = -0.115
Strand = ACTACGAG; result = -0.0668
Strand = AAGTCTAG; result = -0.0265
Strand = CATCTCTA; result = -0.0802
Strand = AGGGAGCC; result = 0.144
Strand = ACGACTCA; result = -0.271
Strand = ATAAGCAC; result = 0.0423
Strand = AAGAATTG; result = -0.107
Strand = ACTTGGGA; result = -0.257
Strand = AATGGCAT; result = -0.0961
Strand = ATACAAGA; result = -0.0915
Strand = AAGAAGCT; result = -0.215
Strand = CCTCTCCG; result = 0.11
Strand = CCCTCGTA; result = 0.108
Strand = ACTGAGGG; result = -0.157
Strand = CTACCCAC; result = -0.0814
Strand = CGCCACGA; result = 0.147

Block 4
Target: Prothrombin, mature alpha-thrombin (F2, Homo sapiens, UniProt P00734)
Method: aptamer microarray, sandwich
Form: DNA with 2'F-ANA
Matrix: in vitro
Tested at: 200 nM
Notes: whole 15-mer aptamer, many near background
Added: Cy3 exosite-II aptamer, 400 nM
Direction: higher = stronger binding
Measurement: mean fluorescence intensity
Strand: GGTTGGTGTGGTTGG
Modification = 2'F-ANA at 2 6 7 8 9 11 13 14; result = 111 a.u.
Modification = 2'F-ANA at 1 3 4 5 7 8 10 11 12 15; result = 48.8 a.u.
Modification = 2'F-ANA at 1 5 7 8 10 14; result = 46.7 a.u.
Modification = 2'F-ANA at 2 3 5 6 9 10 11 12 14 15; result = 50.5 a.u.
Modification = 2'F-ANA at 1 2 4 8 11; result = 132 a.u.
Modification = 2'F-ANA at 1 6 9 10 13 14; result = 44.5 a.u.
Modification = 2'F-ANA at 2 3 6 7 9 10 11 12 15; result = 313 a.u.
Modification = 2'F-ANA at 6 7 9 10 11 12 14 15; result = 104 a.u.
Modification = 2'F-ANA at 5 7 12 15; result = 167 a.u.
Modification = 2'F-ANA at 1 2 4 5 6 8 9 10 12 13 14; result = 48.8 a.u.
Modification = 2'F-ANA at 2 4 6 8 11; result = 259 a.u.
Modification = 2'F-ANA at 1 2 3 4 7 8 10 11 12 13 14; result = 64.5 a.u.
Modification = 2'F-ANA at 1 4 6 7 8 11 15; result = 135 a.u.
Modification = 2'F-ANA at 1 4 6 7 8 9 10 11 12 13 15; result = 70.4 a.u.
Modification = 2'F-ANA at 3 4 7 11 12; result = 1010 a.u.
Modification = 2'F-ANA at 2 3 4 7 11 12 13 15; result = 637 a.u.
Modification = 2'F-ANA at 1 2 6 7 11 12 13 14; result = 60.2 a.u.
Modification = 2'F-ANA at 2 3 4 5 6 7 10 11 12 14; result = 61.2 a.u.
Modification = 2'F-ANA at 3 4 8 9 10 12 13 15; result = 253 a.u.
Modification = 2'F-ANA at 1 3 4 5 10 12 13 14 15; result = 65.1 a.u.
Modification = 2'F-ANA at 1 2 3 4 5 7 8 9 11; result = 58.4 a.u.

For quick reference, copied from above (block 2):
Strand = TTTTTTTTTTTTTCTGATCCGTGCTAG; result = 1.08 z-score
Strand = GACGATTTCAGGTATCGAGACGTGCTA; result = 1.2 z-score
Strand = GACGAGATCAGTATCGAGACGTGCTAG; result = 3.39 z-score
Strand = GAAGGACTGGACTATCGGGACGTGCTA; result = -0.777 z-score
Strand = TTAGACATCGGGTATCGATTAGTGCTA; result = 2.88 z-score
Strand = TTTTGCTTTCATTTATTTACGTGCTAG; result = 3.53 z-score
Strand = GACGGTTTCCGGTTTCGGGACGTGCTA; result = 4.13 z-score
Strand = GACGGTATCGGTTTCGGGAGGTGCTAG; result = 9.23 z-score
Strand = GACGGCATCGGGTATCGGGACGTGCTA; result = 0.403 z-score
Strand = GACGGTCTCGGTTACGGGACGTGCTAG; result = 4.63 z-score
Strand = GACGGTATCTGGTTTCGGGACGTGCTA; result = 4.86 z-score
